Experimental data collected from several papers.
Each numbered part is a random draw from the data of one study; scales do not carry over between parts.

Study 1 — method: protein-binding microarray; form: double-stranded DNA, one strand shown; matrix: in vitro; tested at: 250 nM; setting: 60-bp whole probe; with: salmon DNA 0.4 mg/ml; baseline: random background probes; direction: higher = stronger binding; shared flanks, not repeated: GCCTAGCAC … GTCTTGATTCGCTTGACGCTGCTG
Target: Interferon regulatory factor 7, full length, phosphomimetic (IRF7, Homo sapiens, UniProt Q92985, residues 1-503, S101K/S471D/S472D/S475D/S476D/S477D/S483D/S484D/S487D)
Construct (chain): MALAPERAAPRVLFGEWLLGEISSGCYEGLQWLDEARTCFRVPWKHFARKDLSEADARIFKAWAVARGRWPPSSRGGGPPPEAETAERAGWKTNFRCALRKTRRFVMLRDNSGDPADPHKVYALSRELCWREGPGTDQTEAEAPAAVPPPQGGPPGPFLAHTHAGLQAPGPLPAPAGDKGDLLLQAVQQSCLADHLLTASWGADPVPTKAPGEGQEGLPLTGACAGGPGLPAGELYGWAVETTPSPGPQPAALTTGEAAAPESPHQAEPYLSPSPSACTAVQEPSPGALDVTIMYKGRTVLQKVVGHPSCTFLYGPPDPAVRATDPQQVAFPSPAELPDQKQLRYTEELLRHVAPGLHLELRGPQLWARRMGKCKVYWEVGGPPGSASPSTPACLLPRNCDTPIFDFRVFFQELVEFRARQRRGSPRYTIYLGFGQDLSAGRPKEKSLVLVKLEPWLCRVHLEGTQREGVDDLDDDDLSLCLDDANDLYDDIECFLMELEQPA
Strand | log fluorescence
TTAGATTTCAGTCTCCATTAGTGCTAG | 0.821 z-score
GAAGATTTCAGTTTCGAGACGTGCTAG | 5.51 z-score
TTGGGACTGCTTCTCCTTTAGTGCTAG | 0.0266 z-score
TCATTTTGGTTTTCTCTAACTGTGCTA | 1.88 z-score
TTGGGTATCCTACTGCTTTAGTGCTAG | -0.388 z-score
GACGGACTGGACTTTCGGGAGGTGCTA | -0.691 z-score
AGAGAATGTGGAGAAATAGGGTGCTAG | -0.463 z-score
TTAGGACTGCTATTCCTTTAGTGCTAG | 0.0106 z-score
TCCAGTCTGGGAGATGAAGCGGTGCTA | -0.881 z-score
TCACTTCTGGGCTGTTTAACTGTGCTA | 0.0601 z-score
TTAGCTTTCGGTTCCGGTTAGTGCTAG | 3.69 z-score
GACGGACTGGGTCTCGTGACGTGCTAG | -0.547 z-score
GACGGACTGGGTTGCGGGACGTGCTAG | -0.155 z-score
ACCGTTGTAGTTTTCATTATGTGCTAG | 0.465 z-score
ATTCCTTTGCCTCCAGGCGCGTGCTAG | 1.08 z-score
TTAGATATCGGCTATCGATTAGTGCTA | 0.0546 z-score

Study 2 — method: RNA Bind-n-Seq; form: RNA; matrix: in vitro; tested at: 365 nM; baseline: no-protein control; direction: higher = stronger binding
Target: RNA binding protein fox-1 homolog 2, RRM domain, GST-SBP tag (RBFOX2, Homo sapiens, UniProt O43251-10, residues 100-194)
Setting: natural RNA segment, single round, ends assumed
Shared flanks, not repeated: GGGAGUUCUACAGUCCGACGAUC … UGGAAUUCUCGGGUGCCAA
Residues (chain): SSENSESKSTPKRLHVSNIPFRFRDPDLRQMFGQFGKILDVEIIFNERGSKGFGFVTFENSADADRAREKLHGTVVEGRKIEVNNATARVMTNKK
Strand | RBNS enrichment (R)
CAGAGGGGGAAAAAAAAACUACAGACAAUUUCGGAUGUGAUUAGAUAUUCUUUUUUAAAUGCGGAUUUUCAAAACAUAUUUCCUUUCCAGUGUCCCUUUUGUGUCUGGCU | 0.4
UCAGAUUAGUAUUCGGACAUGAAUCCAUUCUAUAAAACACAUCGUGUUCAUGAUAGUGUAUAUUUUACUACUUUUUGAAUGUUAAUUUUAAAAUAGAAGAUGUCCCACUU | 0.343
UUUUGGUAUGAUAAAGACCCCAAAAUGCCUUUUUUUUAAAGUGGGGAGAGGGAGGAGGUACGCCGGGAGCCUCUUUAACCUCCAUAGGCUGUGUUUGCUCCCAAAUCUGC | 1.1
AGGGCUGGCCCUUAUUUGCUCUCCCUCCUUCGACUUGCAGAAAUUAAUUUAAUUAAUUAAUUUACUAUAUUAAAGCCCUUGGUCACCCAAGGGCUCAGAAAACAAGCUGU | 0.507
UGAUUCUGGUUUUGAGUUACUCUUUGUUCAGUAAUGCACUUUAUUUUAUUGUCCAAAGAGAGUCAGAGCUAAGCAUACAGGCUUGGGGGUGAGCCCUGCUGUGAGAGUUC | 1.21
CCUCUUGGUAAGGAUAUUUGCUUACAAGUGCUAGGAAAUAACUCACUGAUACCUGCGUUAACAUACUUUGUUUUGCCUAGAGAGGGGCAAUAAAAAUGAACCAAAGGAUA | 0.469
AGUAUAUGUUUGGCUCAUUUGAGCAUUUUGGAAUAUUUGAGAAUGUAUGAUACAUGUAAAAUUAAAAAAACUAUUAGAACUGUACCAUAAUUAUGUUGAAGGUAGAAGUG | 0.665
UCUAUAUAUCUAGCUAACUGACUACCUAUCAUCUACCUACCUACCUGCUGUUAAAUAAAGAAUUUCCUUGUCUGAUUUCCUUUCAAUAAAAGUUUUUCUUUGUUUCAGGU | 0.442
UUCUCUUGUGACAUGUAUAAGUGCUGCUUACAUCACUCAACAGCAACAGAACGUGGUAGUGGAGUAGCUGUUGCCCUUCUCCGGCUGUGUGUACAGUAUGUGUGGAAUAA | 0.614
GCCUCACGGAUACAUCCAGCUAUGUGCUUGUCUGGUAGCCUUUGCGUUUAACAAACUAGCAUGAGGCCUUUCAUAUCUAAAUGCUGUGUGAUAGACAAUUUCAGCUAGCC | 0.377
CACAAGAGCACCAGACUUGGGGGUGUAAUCUCCGGCAACUUGCAUGCCCUCUGAAAGAAGGGUUUUCUGUGCUGUGAAAUGCAUAGAACUAUACUUUGCCAUGCACGACU | 7.34
GCAAGUAUGUAUAUAUGUGUAUGCUCAGAUUAACUUCCAUAGGUACAUAAGUGAAAGAAGUCUCAGUUCAGUGAACACAAAACUUAUUUAAAGAUGCUUUAUAUGUAGAA | 0.58

Study 3 — method: RNA Bind-n-Seq; form: RNA; matrix: in vitro; tested at: 200 nM; setting: whole 134-nt RNA, ends assumed; with: 150 mM KCl; baseline: input library; direction: higher = stronger binding
Target: Fragile X messenger ribonucleoprotein 1, C-terminal low-complexity region (Fmr1, Mus musculus, UniProt P35922)
Shared flanks, not repeated: GGGAGUUCUACAGUCCGACGAUC … UGGAAUUCUCGGGUGUCAAGG
Strand | log2 enrichment
CUGUGCUACACAUCGUAUGUACCGAAUCGGGGAAAAAGGGGUUUUUUUGGGGAAAAAGGGGAAAGUAUUAUGUUACGCCGUUCGGAUCUG | 0.00208
UCCUGUGCUACACAUCGUAUGUACCGAAUCGGCCCCCCCGGCCCCCCCGGGCCCCCCCGGAAAGUAUUAUGUUACGCCGUUCGGAUCUGC | 0.287
CUCAAGUCCUGUGCUACACAUCGUAUGUACCGAAUCGGAAGGGGAAGGGGAAGGAAAGUAUUAUGUUACGCCGUUCGGAUCUGCACUUCC | 0.00321
GCCGGAAGUAAAAACAAAUGGAAAUGCUUCGGAUAGUGGCAGGGGUGGGGGUUGCUAAGGAAAGGGUGGGAUGGGAGUGGGUAAAGAGUU | 0.698
UCCUGUGCUACACAUCGUAUGUACCGAAUCAAAUUUUUAAAUUUUUUUAAACCCCCAAAAAAGUAUUAUGUUACGCCGUUCGGAUCUGCA | 0.429
AGUCCUGUGCUACACAUCGUAUGUACCGAAUCGGUUUUUUUGGAAAAAGGUUUUUGGAAAGUAUUAUGUUACGCCGUUCGGAUCUGCACU | -1.42
CUCAAGUCCUGUGCUACACAUCGUAUGUACCGAAUCGGGCCGGGCCGGCCGGGAAAGUAUUAUGUUACGCCGUUCGGAUCUGCACUUCCA | -0.0987

Study 4 — method: RNA Bind-n-Seq; form: RNA; matrix: in vitro; tested at: not given; baseline: input RNA pool; direction: higher = stronger binding
Target: RING finger protein unkempt homolog, zinc fingers 1-6, GST-SBP tag (UNK, Homo sapiens, UniProt Q9C0B0, residues 30-357)
Setting: RNA with constant flanks, human and mouse sites, ends assumed
Shared flanks, not repeated: GGGAGUUCUACAGUCCGACGAUC … CAACAGAGGAUUGAGCAUCA
Target sequence (chain): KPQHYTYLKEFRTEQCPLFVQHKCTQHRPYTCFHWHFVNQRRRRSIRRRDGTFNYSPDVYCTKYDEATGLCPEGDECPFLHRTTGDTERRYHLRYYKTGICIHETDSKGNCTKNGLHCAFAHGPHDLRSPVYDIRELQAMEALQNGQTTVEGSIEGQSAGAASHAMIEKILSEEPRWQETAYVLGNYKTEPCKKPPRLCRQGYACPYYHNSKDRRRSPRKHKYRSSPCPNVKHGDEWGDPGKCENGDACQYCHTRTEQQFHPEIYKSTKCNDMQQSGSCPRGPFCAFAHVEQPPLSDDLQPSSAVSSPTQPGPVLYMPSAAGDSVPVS
Strand | bound/input enrichment
AGUGAAUGGAAGAGACGUGAUGAAGAGCGAAGGCGUGAGCUGGAGGCUCGGAGGCGACGGGAGCAGGAGGAAGAGCUCCGGAGACUUCGAGAACAGGAGAGGGAGGAGAAGGAGCGGCGC | 0.358 ratio
UUUUUGGGGAUUGCUUACAUCGCUGUUGGAUCCAUCUCCUUCCUUCUGGGAGUUGUACUGCUAGUAAUUAAUCAUAAAUAUAGAAACAGUAGUAAUACAGCUGACAUUACCAUUUAAUUU | 5.11 ratio
AUGGAGAUGUAUCAACCUAGUGCUGUGGUAUUACAGUGUGGUGCAGACUCAUUAUCUGGUGAUAGACUGGGUUGUUUCAAUCUAACAGUCAAAGGUCAUGCUAAAUGUGUAGAAGUUGUA | 0.306 ratio
CCUUCAGUCUUUUCCUGUUUACCGGCAUCUCUUGAGUGCUUGGCUGAUACAAGUGAUUCCUGCUUUCUCCAGUUUGAGUCAUGUCCAAUGGAGGAGAGCUGGUUUAUCACCCCACCCCCA | 0.173 ratio
GCCAAGCACUACAUGUGUCCCAUCUGUGGUGAGCGCUUCCCUUCGCUGCUGACGCUCACCGAACACAAGGUGACCCACAGCAAGAGCCUGGACACGGGCACCUGUCGCAUCUGCAAGAUG | 0.0545 ratio
UUGGAGCAGCCCGUGGUGGUGCAGAGCGUGGGCACGGAUGGACGUGUCUUCCAUUUCCUAGUGUUUCAACUGAAUACCACAGACCUGGACUGUAACGAGGGUGUCAAGAAUUUGGCCUGG | 0.147 ratio
UACUAGGUUCUUGAUUCCCUUAUAUGGCAAUCAGGCAGAGGCGUUCCUUAAGCAUUAGAGAGUUCUGAAGCUUAAGAUUUGUUUUGGUUGGAUGAAGUCCUUAGUACAGUUGAAAAACAG | 0.366 ratio
AUAAAAGCCAUGUUGAGUGGCCCAGGUCAGUUUGCUGAGAACGAAACCAAUGAGGUCAAUUUUAGAGAGAUACCUUCACAUGUGCUAUCGAAAGUAUGCAUGUAUUUUACGUACAAGGUU | 0.116 ratio
AUUGACCCUAUAUAAAAAAGUGGGCAUUUUGUAACAUUCCUUCAGGAAGAAUAGAAUUGUAUGCUUUUUUCUGCAUGUUUGUGAUCACUGUGAGUCUCAGAUGAUUAUUCCAGUUUUCAA | 0.304 ratio
AGUCCAGCCCGGUGCCUGGGGCGCCUUUCAGCUCCGCGCUCAGAUUUUCCUGUUUUCGUUGUUUUCAAAGACAGCGACAUUUCGGGUCUGGUGCUAACACCCCCUUCCCAGCCUCUGGGA | 0.103 ratio
GGAUUGUAGAUUUUUGCUUUUUCUUUUUGUUUUUAAAACUUAUUCCAAUUGCUAAAUUGGUAGUUUUUCAGUCUUUAUAAAUACAGGAUUAAAAAUAUAUAUACAGUUAUAUGAAAUGUU | 0.795 ratio
